Experimental data of several laboratories.
Protocols differ between the studies behind these lines. ± gives the spread as reported.

Molecule | assay | test system | conditions | how to read | endpoint | result
CCOC(=O)C1=C(C)NC(=S)NC1c1ccccc1Br (stereo not drawn) | carotid artery cannulation | male Wistar rats, anaesthetised | 0.3 mL, 3 h |  | mean arterial pressure | 23 ± 0.97 mm Hg
C[C@]12N3Cc4c(c(OCCCS(=O)(=O)[O-])c5ccccc5c4OCCCS(=O)(=O)[O-])CN1C(=O)N1CN4C(=O)N5CN6C(=O)N7CN8C(=O)N9Cc%10c(c(OCCCS(=O)(=O)[O-])c%11ccccc%11c%10OCCCS(=O)(=O)[O-])CN%10C(=O)N(CN%11C(=O)N(CN%12C(=O)N(CN(C3=O)[C@]12C)[C@@H]4[C@H]%125)[C@@H]6[C@H]%117)[C@]8(C)[C@@]9%10C.[Na+].[Na+].[Na+].[Na+] |  | Sprague-Dawley rat | intravenous, 20 to 80 mg/kg/min, added: continuous ketamine infusion | relative to: steady-state ketamine | total EEG power | 63%
CC[C@H](C)[C@H](NC(=O)CNC(=O)[C@H](Cc1c[nH]c2ccccc12)NC(=O)CNC(C)=O)C(=O)N[C@@H](CCCCN)C(N)=O | DSC | SOPC/cholesterol 7/3 bilayers | 10 mol%, pH 7.40 |  | transition enthalpy | 0.8 kcal/mol
acyline |  | human men | sc, 300 µg/kg, 24 h |  | serum oestradiol | 6.6 ± 3.3 pg/mL
CSCC[C@H](NC(=O)[C@H](CC(C)C)NC(=O)[C@H](C)N)C(=O)NCC(=O)N[C@@H](C)C(=O)N[C@H](C(=O)N[C@H](C(=O)N[C@@H](CO)C(=O)N[C@@H](CC(C)C)C(=O)O)[C@@H](C)O)C(C)C |  | PBMC, human, HSV-1 seropositive, HLA-A*0201+ | 10 µg/mL, 72 h |  | IFN-γ+ CD8+ T cells | ≤ 4%
rat urocortin I | item: CREB phospho-Ser133 | hippocampal pyramidal neurons, Sprague-Dawley rat pups | 40 nM, 15 min |  | responding neurons | ~85%
Cc1ccc(NC(=S)NS(=O)(=O)C2=CNC3SC(=O)CN3C2=O)cc1 (stereo not drawn) | oral glucose tolerance test | HFD/STZ type 2 diabetic rat | oral, 10 mg/kg, added: glucose 1 g/kg |  | glucose AUC | 496 ± 40.9 mg·min/dL
Cl.Cl.Cl.NCCCNCCCCNCCCNC(=O)Cc1cccc2ccccc12 | whole-cell voltage clamp | nucleus accumbens core D2-MSNs, mouse | 100 µM, added: D1-MSN 50 Hz stimulation | relative to: baseline | EPSC amplitude | 88 ± 2.67%
c1ccc2c(c1)cc1ccc3cccc4ccc2c1c34 | inducer | female rat, liver | oral, 1 mg, 24 h, sesame oil vehicle |  | menadione reductase activity | 14.3 enzyme units
C=CC=O | reaction with cysteine thiol |  | pH 7.4, corrected for thiolate fraction |  | log k | 3.42
atrial natriuretic peptide | echocardiography | male Wistar rat, high-fat/STZ type 2 diabetes | subcutaneous osmotic pump, 2 pmol/kg/min, 6 weeks |  | fractional shortening | ~44%
CC(C)C[C@@H]1NC(=O)[C@@H](Cc2c[nH]c3ccccc23)NC(=O)[C@H](CCCCN)NC(=O)[C@@H](Cc2c[nH]cn2)NC(=O)[C@H](CO)NC(=O)[C@@H](Cc2c[nH]cn2)NC(=O)[C@H](CCCCN)NC(=O)[C@@H](Cc2c[nH]c3ccccc23)NC1=O | 16S rRNA sequencing, item: gut microbiota | LDLr-/- mice, Western diet, feces | oral, 35 mg/kg daily | relative to: vehicle | time to increased Bacteroidetes/Firmicutes ratio | ≤ 2 weeks
CC(=O)N[C@@H](CC(C)C)C(=O)N1CCC[C@H]1C(=O)N[C@@H](Cc1ccc(O)cc1)C(=O)N1CCC[C@H]1C(=O)N[C@@H](CCCCN)C(N)=O | DSC | SOPC/cholesterol 7/3 bilayers | 10 mol%, pH 7.40 |  | transition enthalpy | 0.5 kcal/mol
C[C@@H]1N(C)C(C)(C)CO[C@@]1(O)c1cccc(Cl)c1 | nicotine antinociception blockade, antagonist, tail-flick test | mouse | 15 min pretreatment, added: nicotine 2.5 mg/kg subcutaneous |  | ED50 | 0.016 mg/kg
CC(=O)N[C@@H](CO)C(=O)N[C@@H](Cc1c[nH]cn1)C(=O)N[C@@H](C)C(=O)N[C@H](C(=O)N[C@@H](CO)C(=O)N[C@@H](CO)C(N)=O)C(C)C | T1-weighted MRI | Sprague-Dawley rat | iv, 0.019 mmol/kg, added: Gd-DTPA |  | onset of BBB opening | ≤ 3 min

Excerpt of the above:
Molecule | assay | test system | conditions | how to read | endpoint | result
CC(C)C[C@@H]1NC(=O)[C@@H](Cc2c[nH]c3ccccc23)NC(=O)[C@H](CCCCN)NC(=O)[C@@H](Cc2c[nH]cn2)NC(=O)[C@H](CO)NC(=O)[C@@H](Cc2c[nH]cn2)NC(=O)[C@H](CCCCN)NC(=O)[C@@H](Cc2c[nH]c3ccccc23)NC1=O | 16S rRNA sequencing, item: gut microbiota | LDLr-/- mice, Western diet, feces | oral, 35 mg/kg daily | relative to: vehicle | time to increased Bacteroidetes/Firmicutes ratio | ≤ 2 weeks
